Measurements from different studies.
A part holds a random share of what one study measured. Changes are numbered by the printed parent chain.

Series 1
Target: PABPC1L2, full length, GST fusion (mouse, UniProt A0ABA7IW68)
Method: RNAcompete
Form: RNA
Matrix: in vitro
Tested at: 20 nM
Setting: 7-mer, probes averaged, single round
Baseline: mean of 7-mers
Direction: higher = stronger binding
| Strand | 7-mer Z-score |
| --- | --- |
| CAGCGGA | -0.0645 |
| GCCUAAG | -0.324 |
| AGAACAA | 0.412 |
| AGAGGCA | 0.216 |
| UGAGUUC | -0.394 |
| GGGGCAG | 0.631 |
| AAGGCAC | 0.378 |
| AGGGAGU | 0.0678 |

Series 2
Variant: G81F
Target: ABI1, truncated, D143A, DHFR fusion (Arabidopsis thaliana)
Method: DHFR PCA, deep sequencing
Matrix: yeast
Setting: methotrexate growth selection, single substitutions
Baseline: wild-type fitted maximum
Direction: higher = stronger binding
Parent: PYL1, truncated, DHFR fusion (Arabidopsis thaliana); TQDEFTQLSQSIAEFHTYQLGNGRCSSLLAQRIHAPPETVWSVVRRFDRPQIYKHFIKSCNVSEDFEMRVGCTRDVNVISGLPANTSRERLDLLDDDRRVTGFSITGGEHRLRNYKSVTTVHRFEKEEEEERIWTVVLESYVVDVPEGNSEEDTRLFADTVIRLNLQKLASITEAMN; partner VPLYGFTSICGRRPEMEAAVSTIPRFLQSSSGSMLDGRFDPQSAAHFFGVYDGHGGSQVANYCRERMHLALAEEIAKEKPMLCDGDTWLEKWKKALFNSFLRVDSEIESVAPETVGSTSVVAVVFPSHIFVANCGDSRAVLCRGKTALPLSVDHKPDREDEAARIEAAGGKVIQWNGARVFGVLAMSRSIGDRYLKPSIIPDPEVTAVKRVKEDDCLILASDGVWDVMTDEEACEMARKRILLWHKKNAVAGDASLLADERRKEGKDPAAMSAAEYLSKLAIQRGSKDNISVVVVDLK
| together with | relative binding score [%] |
| --- | --- |
| (+)-ABA 17 µM | 4.95 |
| (+)-ABA 1.4 µM | -15 |
| (+)-ABA 0.0091 µM | -11.2 |
| (+)-ABA 0.39 µM | -10.1 |
| (+)-ABA 710 µM | 35.2 |
| (+)-ABA 0 µM | -1.1 |

Single results of other studies
SMN1 full length: SMN1, full length (human, UniProt Q16637, residues 1-294)
UniProt Q16637, sequence (whole entry, looked up): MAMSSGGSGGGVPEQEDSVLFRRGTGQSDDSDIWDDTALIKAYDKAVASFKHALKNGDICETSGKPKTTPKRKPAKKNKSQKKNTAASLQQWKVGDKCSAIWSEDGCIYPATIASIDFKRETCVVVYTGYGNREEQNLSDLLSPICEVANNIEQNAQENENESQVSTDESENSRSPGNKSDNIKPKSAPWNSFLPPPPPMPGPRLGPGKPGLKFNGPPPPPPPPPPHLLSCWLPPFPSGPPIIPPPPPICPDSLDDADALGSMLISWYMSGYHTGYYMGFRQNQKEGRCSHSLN
| Molecule | target | assay | test system | setting | scale | quantity | result |
| --- | --- | --- | --- | --- | --- | --- | --- |
| GGGCUCACCACGCACCUGGUGGGGCAAAUUGAGUGGCCCGCCUCACCACGGCAAGCU | SMN1 full length | nitrocellulose filter binding | RNA, in vitro | 100 nM, whole RNA, constant flanks, single concentration, ends assumed | baseline: round 9 selected pool, higher = stronger binding | relative RNA binding | 47 % of pool |
| VLYCVHQRV | HLA class I histocompatibility antigen, A alpha chain, allele A*26:03 (Homo sapiens, UniProt P04439) | peptide-MHC binding | peptide | concentration not given | – | binding | inactive |
| GGGCUCACCACGCACGGGGGGCAGGUGGGGUUUUGCGUGACCUCACCACGGCAAGCU | SMN1 full length | nitrocellulose filter binding | RNA, in vitro | 100 nM, whole RNA, constant flanks, single concentration, ends assumed | baseline: round 9 selected pool, higher = stronger binding | relative RNA binding | 2.5 % of pool |

A few entries again (series 2):
| together with | relative binding score [%] |
| --- | --- |
| (+)-ABA 17 µM | 4.95 |
| (+)-ABA 1.4 µM | -15 |
